Values quoted from earlier work that unrelated publications cite.
Each line is one published result; not all experiments were run side by side. Numbers after ± are the reported error.
Gastrin-releasing peptide receptor: Gastrin-releasing peptide receptor (Rattus norvegicus, UniProt P52500)
UniProt P52500, sequence (whole entry, looked up): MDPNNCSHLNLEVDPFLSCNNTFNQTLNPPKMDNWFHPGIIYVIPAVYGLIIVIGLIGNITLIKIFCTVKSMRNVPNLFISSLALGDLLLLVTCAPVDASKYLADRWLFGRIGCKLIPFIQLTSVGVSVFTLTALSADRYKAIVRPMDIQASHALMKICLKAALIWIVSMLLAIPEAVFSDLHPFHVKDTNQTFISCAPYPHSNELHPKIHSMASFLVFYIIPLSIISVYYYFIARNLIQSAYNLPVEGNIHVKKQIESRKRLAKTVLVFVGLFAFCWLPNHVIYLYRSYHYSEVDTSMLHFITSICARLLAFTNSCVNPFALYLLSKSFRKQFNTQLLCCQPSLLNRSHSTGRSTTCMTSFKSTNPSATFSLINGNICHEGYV
gag-pol integrase: Gag-Pol polyprotein, integrase (gag-pol, Human immunodeficiency virus type 1 group M subtype B, UniProt P04585)
atpG/atpA/atpD: atpG/atpA/atpD (Escherichia coli, UniProt P0ABA6+P0ABB0+P0ABB4)
UniProt P0ABB4, sequence (whole entry, looked up): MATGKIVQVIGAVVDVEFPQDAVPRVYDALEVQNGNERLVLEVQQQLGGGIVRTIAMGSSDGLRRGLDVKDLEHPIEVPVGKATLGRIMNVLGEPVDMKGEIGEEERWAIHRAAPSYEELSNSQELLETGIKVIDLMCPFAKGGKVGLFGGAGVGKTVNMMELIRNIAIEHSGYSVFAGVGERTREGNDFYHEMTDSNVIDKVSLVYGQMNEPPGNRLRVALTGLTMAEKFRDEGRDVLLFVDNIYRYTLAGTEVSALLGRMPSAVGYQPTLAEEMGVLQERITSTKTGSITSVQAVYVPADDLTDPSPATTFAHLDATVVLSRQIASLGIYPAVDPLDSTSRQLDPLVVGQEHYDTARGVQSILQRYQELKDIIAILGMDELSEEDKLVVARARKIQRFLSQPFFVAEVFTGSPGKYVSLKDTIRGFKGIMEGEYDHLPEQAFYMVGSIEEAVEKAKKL
UniProt P0ABB0, sequence (whole entry, looked up): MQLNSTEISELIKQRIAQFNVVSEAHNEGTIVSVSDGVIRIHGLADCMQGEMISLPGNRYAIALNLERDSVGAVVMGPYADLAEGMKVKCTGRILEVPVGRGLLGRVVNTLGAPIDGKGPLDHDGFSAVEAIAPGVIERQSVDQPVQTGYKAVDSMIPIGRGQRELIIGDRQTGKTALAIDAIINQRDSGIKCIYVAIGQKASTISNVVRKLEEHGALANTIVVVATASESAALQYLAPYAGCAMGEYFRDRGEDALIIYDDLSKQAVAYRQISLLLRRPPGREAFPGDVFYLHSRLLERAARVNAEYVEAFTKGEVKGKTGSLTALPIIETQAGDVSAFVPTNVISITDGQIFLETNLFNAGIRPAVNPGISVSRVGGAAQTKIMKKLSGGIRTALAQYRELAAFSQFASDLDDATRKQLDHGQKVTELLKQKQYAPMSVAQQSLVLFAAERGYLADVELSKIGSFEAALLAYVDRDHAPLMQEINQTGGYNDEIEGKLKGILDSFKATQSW
UniProt P0ABA6, sequence (whole entry, looked up): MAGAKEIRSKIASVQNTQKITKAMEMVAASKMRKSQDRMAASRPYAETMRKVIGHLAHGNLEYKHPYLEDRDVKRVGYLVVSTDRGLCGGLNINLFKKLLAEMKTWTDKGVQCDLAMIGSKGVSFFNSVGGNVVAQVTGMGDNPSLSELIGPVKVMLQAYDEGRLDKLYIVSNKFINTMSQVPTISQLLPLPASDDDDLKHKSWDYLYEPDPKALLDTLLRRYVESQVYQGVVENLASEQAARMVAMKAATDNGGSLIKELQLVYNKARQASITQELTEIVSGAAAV
UniProt Q8R2Y0, sequence (whole entry, looked up): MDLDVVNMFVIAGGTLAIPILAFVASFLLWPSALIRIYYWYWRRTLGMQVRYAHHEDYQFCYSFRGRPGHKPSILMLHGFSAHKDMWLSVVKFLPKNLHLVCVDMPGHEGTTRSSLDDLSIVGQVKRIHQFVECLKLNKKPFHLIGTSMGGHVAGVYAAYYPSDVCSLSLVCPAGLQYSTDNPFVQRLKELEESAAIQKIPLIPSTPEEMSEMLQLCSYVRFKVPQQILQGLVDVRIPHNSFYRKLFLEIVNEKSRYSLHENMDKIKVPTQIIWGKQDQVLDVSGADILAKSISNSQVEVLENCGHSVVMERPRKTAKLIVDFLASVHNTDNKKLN
UniProt P0A6F5, sequence (whole entry, looked up): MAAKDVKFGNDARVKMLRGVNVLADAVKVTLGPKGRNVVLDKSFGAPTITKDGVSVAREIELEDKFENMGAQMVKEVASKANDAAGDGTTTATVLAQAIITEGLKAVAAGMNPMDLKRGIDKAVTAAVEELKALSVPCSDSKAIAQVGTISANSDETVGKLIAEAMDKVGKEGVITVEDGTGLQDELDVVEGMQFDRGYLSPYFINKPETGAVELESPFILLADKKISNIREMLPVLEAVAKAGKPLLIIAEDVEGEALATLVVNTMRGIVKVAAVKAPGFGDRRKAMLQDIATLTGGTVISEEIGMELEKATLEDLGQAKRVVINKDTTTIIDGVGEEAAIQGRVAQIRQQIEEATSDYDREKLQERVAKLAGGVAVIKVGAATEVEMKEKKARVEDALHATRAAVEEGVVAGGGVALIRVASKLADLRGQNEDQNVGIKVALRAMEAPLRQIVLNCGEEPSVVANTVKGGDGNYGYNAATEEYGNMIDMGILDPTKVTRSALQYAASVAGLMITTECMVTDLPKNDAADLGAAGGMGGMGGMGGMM
UniProt P35368, sequence (whole entry, looked up): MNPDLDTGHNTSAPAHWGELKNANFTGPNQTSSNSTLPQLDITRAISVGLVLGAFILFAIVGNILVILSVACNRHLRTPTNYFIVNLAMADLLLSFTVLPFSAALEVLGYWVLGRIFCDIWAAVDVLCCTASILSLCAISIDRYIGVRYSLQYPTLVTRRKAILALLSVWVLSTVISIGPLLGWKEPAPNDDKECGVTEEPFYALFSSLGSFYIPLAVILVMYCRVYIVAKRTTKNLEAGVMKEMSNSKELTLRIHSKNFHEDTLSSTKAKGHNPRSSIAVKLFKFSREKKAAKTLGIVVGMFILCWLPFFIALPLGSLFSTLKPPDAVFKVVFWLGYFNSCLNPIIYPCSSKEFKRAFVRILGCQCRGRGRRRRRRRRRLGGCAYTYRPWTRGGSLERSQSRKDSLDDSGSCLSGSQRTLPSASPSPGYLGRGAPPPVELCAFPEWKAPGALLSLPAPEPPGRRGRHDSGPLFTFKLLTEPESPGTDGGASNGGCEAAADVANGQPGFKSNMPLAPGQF
UniProt Q13547, sequence (whole entry, looked up): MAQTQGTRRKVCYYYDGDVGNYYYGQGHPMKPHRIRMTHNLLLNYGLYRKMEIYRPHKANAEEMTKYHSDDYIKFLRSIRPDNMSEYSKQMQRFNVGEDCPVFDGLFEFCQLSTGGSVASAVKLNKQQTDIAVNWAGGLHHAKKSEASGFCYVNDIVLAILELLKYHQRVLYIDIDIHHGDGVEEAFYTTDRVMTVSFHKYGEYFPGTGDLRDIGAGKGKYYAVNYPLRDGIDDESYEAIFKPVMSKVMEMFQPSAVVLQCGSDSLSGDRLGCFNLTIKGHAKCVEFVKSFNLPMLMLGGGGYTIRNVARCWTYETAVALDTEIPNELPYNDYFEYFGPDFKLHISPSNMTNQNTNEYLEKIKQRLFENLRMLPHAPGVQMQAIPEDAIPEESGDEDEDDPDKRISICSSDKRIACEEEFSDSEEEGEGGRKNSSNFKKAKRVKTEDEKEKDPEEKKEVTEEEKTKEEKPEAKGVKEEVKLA
UniProt Q63008, sequence (whole entry, looked up): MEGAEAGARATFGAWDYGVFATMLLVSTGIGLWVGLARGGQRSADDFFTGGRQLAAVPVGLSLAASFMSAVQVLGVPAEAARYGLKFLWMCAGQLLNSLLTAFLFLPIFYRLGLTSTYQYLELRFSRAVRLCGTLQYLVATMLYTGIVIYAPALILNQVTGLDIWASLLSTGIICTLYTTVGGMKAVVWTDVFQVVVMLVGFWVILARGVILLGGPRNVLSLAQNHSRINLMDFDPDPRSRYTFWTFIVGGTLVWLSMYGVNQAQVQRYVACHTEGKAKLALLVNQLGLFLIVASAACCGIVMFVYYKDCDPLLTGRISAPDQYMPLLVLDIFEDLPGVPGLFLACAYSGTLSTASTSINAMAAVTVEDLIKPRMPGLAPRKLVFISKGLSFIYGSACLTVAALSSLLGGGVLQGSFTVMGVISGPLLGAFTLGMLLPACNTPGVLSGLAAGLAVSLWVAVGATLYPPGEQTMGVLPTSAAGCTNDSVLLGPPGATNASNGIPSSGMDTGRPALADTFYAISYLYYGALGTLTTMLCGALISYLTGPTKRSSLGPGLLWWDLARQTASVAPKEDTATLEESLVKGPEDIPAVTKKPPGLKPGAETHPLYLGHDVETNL
UniProt Q07817, sequence (whole entry, unmodified, looked up): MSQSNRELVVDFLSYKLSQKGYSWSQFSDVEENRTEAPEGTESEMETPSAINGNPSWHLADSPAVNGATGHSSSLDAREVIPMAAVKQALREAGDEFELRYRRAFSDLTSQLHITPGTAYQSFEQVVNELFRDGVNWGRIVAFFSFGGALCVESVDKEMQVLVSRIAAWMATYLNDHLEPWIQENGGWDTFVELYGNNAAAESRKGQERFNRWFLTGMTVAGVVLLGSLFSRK
UniProt P0A884, sequence (whole entry, looked up): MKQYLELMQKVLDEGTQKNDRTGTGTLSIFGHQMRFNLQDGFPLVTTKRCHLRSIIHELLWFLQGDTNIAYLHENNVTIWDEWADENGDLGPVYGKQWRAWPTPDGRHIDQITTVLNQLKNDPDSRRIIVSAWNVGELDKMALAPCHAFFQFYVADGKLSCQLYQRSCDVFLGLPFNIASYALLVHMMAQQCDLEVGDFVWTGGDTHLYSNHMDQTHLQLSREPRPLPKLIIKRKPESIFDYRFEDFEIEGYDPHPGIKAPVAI

SMILES | target | test | test system | conditions | measurement | result
O=C(/C=C/c1ccc(O)c(O)c1)OCCc1ccccc1 | HIV-1 integrase | inhibitor | – | published values | IC50 | 18.9 µM
CCCCNC(=O)[C@H](CC(C)C)NC(=O)[C@H](Cc1c[nH]cn1)NC(=O)CNC(=O)[C@@H](NC(=O)[C@H](C)NC(=O)[C@H](Cc1c[nH]c2ccccc12)NC(=O)[C@H](CCC(N)=O)NC(=O)[C@H](N)Cc1ccccc1)C(C)C | Gastrin-releasing peptide receptor | binding | – | literature species comparison | IC50 | 0.014 ± 0.001 µM
O=C(O)C(=O)C=C(O)c1cc(Cc2ccc(F)cc2F)cn(Cc2ccccc2F)c1=O | gag-pol integrase | integrase strand transfer, inhibitor | – | – | IC50 | 0.006 µM
CN1CC[C@]2(C)c3cc(OC(=O)Nc4ccccc4)ccc3N(C)[C@H]12 | Cholinesterase (BCHE, Homo sapiens, UniProt P06276) | enzyme activity, inhibitor | – | – | IC50 | 23.5 ± 0.3 µM
Cc1oncc1C(=O)Nc1ccc(C(F)(F)F)cc1 | Broad substrate specificity ATP-binding cassette transporter ABCG2 (ABCG2, Homo sapiens, UniProt Q9UNQ0) | transport | – | – | IC50 | 4.53 µM
C=CCN(CC=C)CCc1c[nH]c2ccc(Br)cc12 | Alpha-1B adrenergic receptor (ADRA1B, Homo sapiens, UniProt P35368) | – | – | – | Ki | 2.05 µM
OC[C@H]1OC(O)[C@@H](O)[C@@H](O)[C@@H]1O (some centres unmarked) | CD209 antigen (CD209, Homo sapiens, UniProt Q9NNX6) | binding | – | – | IC50 | 2000 to 3000 µM
Oc1ccc(/C=C/c2cc(O)cc(O)c2)cc1 | atpG/atpA/atpD | ATP synthase activity, inhibitor | – | – | IC50 | ~94 µM
O=C(CCNNC(=O)c1ccncc1)NCc1ccccc1 | monoamine oxidase (rat) | – | brain homogenate | – | IC50 | 2.6 to 13 µM
COC1CCC(C(=O)c2ccc3nc4c(cc3c2)CCCO4)CC1 (centres unmarked) | mGlu1 receptor | agonist-induced PI hydrolysis, antagonist | – | – | IC50 | 0.0017 µM
Nc1nc(N)c2c(n1)[nH]c1cccc(Sc3ccccc3)c12 | Thymidylate synthase (Escherichia coli K-12, UniProt P0A884) | – | – | – | IC50 | > 27 µM
CC(C)c1c(Cc2ccccc2)n(COCc2ccc(F)cc2)c(=O)n(O)c1=O | gag-pol integrase | strand transfer, inhibitor, gel | HIV-1 | – | IC50 | 3.5 ± 0.6 µM
CCCCCCCC(=O)SCC/C=C/[C@@H]1CC(=O)NCc2nc(cs2)C2=N[C@@](C)(CS2)C(=O)N[C@@H](C(C)C)C(=O)O1 | Histone deacetylase 1 (HDAC1, Homo sapiens, UniProt Q13547) | enzyme activity | – | – | IC50 | 0.04 µM
NCc1c[nH]c(=S)n1[C@H]1CCc2c(F)cc(F)cc2C1 | dopamine β-hydroxylase | inhibitor | – | – | IC50 | 0.009 µM
CCOC(=O)[C@H](CC(C)C)NC(=O)[C@H](Cc1c[nH]cn1)NC(=O)CNC(=O)[C@@H](NC(=O)[C@H](C)NC(=O)[C@H](Cc1c[nH]c2ccccc12)NC(=O)[C@H](CCC(N)=O)NC(=O)[C@H](N)Cc1ccccc1)C(C)C | Gastrin-releasing peptide receptor | binding | – | literature species comparison | IC50 | 0.005 ± 0.001 µM
O=c1c(O[C@@H]2O[C@H](CO)[C@@H](O)[C@H](O)[C@H]2O)c(-c2ccc(O)c(O)c2)oc2cc(O)cc(O)c12 | atpG/atpA/atpD | ATP synthase activity, inhibitor | – | – | IC50 | ~71 µM
O=C(O)CC[C@H]1CC[C@@](c2cc(F)ccc2F)(S(=O)(=O)c2ccc(Cl)cc2)CC1 | gamma-secretase | substrate cleavage, inhibitor | – | – | IC50 | 0.05 µM
Cc1cc(O)c2c(=O)c3c(O)cc(O)c4c5c(O)cc(O)c6c(=O)c7c(O)cc(C)c8c1c2c(c34)c(c78)c65 | UDP-glucuronosyltransferase 1A6 (UGT1A6, Homo sapiens, UniProt P19224) | enzyme activity, inhibitor | – | together with: acetaminophen glucuronidation | IC50 | 7.1 µM
O=C(/C=C/c1ccc(O)c(O)c1)O[C@@H]1C[C@](O)(C(=O)O)C[C@@H](O)[C@H]1O | HIV integrase | enzyme activity, inhibitor | – | – | IC50 | > 50 µM
CC(C)c1c(Cc2ccccc2)n(COCc2ccccc2)c(=O)n(N)c1=O | gag-pol integrase | strand transfer, inhibitor, gel | HIV-1 | – | IC50 | > 111 µM
COC(=O)[C@H](CC(C)C)NC(=O)[C@H](Cc1cnc[nH]1)NC(=O)CNC(=O)[C@@H](NC(=O)[C@H](C)NC(=O)[C@H](Cc1c[nH]c2ccccc12)NC(=O)[C@H](CCC(N)=O)NC(=O)[C@H](N)Cc1ccccc1)C(C)C | Gastrin-releasing peptide receptor | binding | – | literature species comparison | IC50 | 0.0103 ± 0.0014 µM
CC(C)c1ccc(O)c(=O)c(O)c1 | Gag-Pol polyprotein, RNase H domain (gag-pol, Human immunodeficiency virus type 1 group M subtype B, UniProt P04585) | RNase H activity, inhibitor | HIV-1 | – | IC50 | 0.2 µM
CCOc1cc(Oc2ccc(C(F)(F)F)cc2Cl)ccc1[N+](=O)[O-] | Sodium/iodide cotransporter (Rattus norvegicus, UniProt Q63008) | iodide uptake, inhibitor | FRTL-5 | – | IC50 | 2 µM
O=C(Oc1ccc([N+](=O)[O-])cc1)N1CCC(C(O)(c2ccc3c(c2)OCO3)c2ccc3c(c2)OCO3)CC1 | Monoacylglycerol lipase ABHD6 (Abhd6, Mus musculus, UniProt Q8R2Y0) | – | – | previously reported | IC50 | 3.27 µM
COc1ccc(C(=O)NN=Cc2ccc(O)c3ncccc23)cc1 | Chaperonin GroEL, with GroES (groEL, Escherichia coli, UniProt P0A6F5) | GroEL/ES-mediated refolding, inhibitor | – | together with: denatured rhodanese | IC50 | 18 µM
C=CCN(CC=C)CCc1c[nH]c2ccccc12 | Alpha-1D adrenergic receptor (ADRA1D, Homo sapiens, UniProt P25100) | binding | cloned human receptor | together with: [3H]prazocin | Ki | > 10 µM
Cc1cc2c(C(C)C)c(O)c(O)c(C=O)c2c(O)c1-c1c(C)cc2c(C(C)C)c(O)c(O)c(C=O)c2c1O | Bcl-2-like protein 1, transmembrane domain deleted (BCL2L1, Homo sapiens, UniProt Q07817) | fluorescence polarization | – | – | IC50 | 0.54 µM
CCCNC(=O)[C@H](CC(C)C)NC(=O)[C@H](Cc1cnc[nH]1)NC(=O)CNC(=O)[C@@H](NC(=O)[C@H](C)NC(=O)[C@H](Cc1c[nH]c2ccccc12)NC(=O)[C@H](CCC(N)=O)NC(=O)[C@H](N)Cc1ccccc1)C(C)C | Gastrin-releasing peptide receptor | binding | – | literature species comparison | IC50 | 0.0064 ± 0.0008 µM
O=C(O)C1=CC(=C(c2ccc(O)c(C(=O)O)c2)c2ccc(O)c(C(=O)O)c2)C=CC1=O | HCV NS3 helicase | DNA unwinding, inhibitor | – | – | IC50 | 0.6 ± 0.1 µM

A few entries again:
SMILES | target | test | test system | conditions | measurement | result
CCCCNC(=O)[C@H](CC(C)C)NC(=O)[C@H](Cc1c[nH]cn1)NC(=O)CNC(=O)[C@@H](NC(=O)[C@H](C)NC(=O)[C@H](Cc1c[nH]c2ccccc12)NC(=O)[C@H](CCC(N)=O)NC(=O)[C@H](N)Cc1ccccc1)C(C)C | Gastrin-releasing peptide receptor | binding | – | literature species comparison | IC50 | 0.014 ± 0.001 µM
O=C(O)C(=O)C=C(O)c1cc(Cc2ccc(F)cc2F)cn(Cc2ccccc2F)c1=O | gag-pol integrase | integrase strand transfer, inhibitor | – | – | IC50 | 0.006 µM
CN1CC[C@]2(C)c3cc(OC(=O)Nc4ccccc4)ccc3N(C)[C@H]12 | Cholinesterase (BCHE, Homo sapiens, UniProt P06276) | enzyme activity, inhibitor | – | – | IC50 | 23.5 ± 0.3 µM
